Measurements gathered from unrelated publications.
Each numbered part is a random draw from the data of one study; scales do not carry over between parts.

Sample 1 — method: RNA Bind-n-Seq; form: RNA; medium: in vitro; tested at: not given; baseline: input RNA pool; reading: higher = stronger binding
Target: RING finger protein unkempt homolog, zinc fingers 1-6, GST-SBP tag (UNK, Homo sapiens, UniProt Q9C0B0, residues 30-357)
Chain of UniProt Q9C0B0 (30-357, looked up): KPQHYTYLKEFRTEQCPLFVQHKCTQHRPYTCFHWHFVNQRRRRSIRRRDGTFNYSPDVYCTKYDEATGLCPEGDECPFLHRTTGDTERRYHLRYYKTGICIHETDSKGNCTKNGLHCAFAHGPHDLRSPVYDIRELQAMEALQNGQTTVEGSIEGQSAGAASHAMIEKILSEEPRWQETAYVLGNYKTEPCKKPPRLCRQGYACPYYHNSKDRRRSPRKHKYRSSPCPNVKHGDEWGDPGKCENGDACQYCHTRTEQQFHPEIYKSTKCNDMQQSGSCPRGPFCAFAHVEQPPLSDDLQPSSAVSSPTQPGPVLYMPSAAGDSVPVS
Setting: RNA with constant flanks, human-mouse chimeric sites, ends assumed
`GGGAGUUCUACAGUCCGACGAUCCACAGAGGCACCACCCCCUCCUCCUUCUUUCCACACCUGCAAACUCUUUUACUUGGGCUGAAUAUUUAGUGUAAUUACAUCUCAGCUUUGAGGGCUCCUGUGGCAAAUUCCCGGAUUAAACAACAGAGGAUUGAGCAUCA` has a bound/input enrichment of 0.835 ratio.
`GGGAGUUCUACAGUCCGACGAUCUUAAUCCCCUUUACUGCUCCCCCACUUGUCAUGCUGAUGACAAAAACUUAUAUCCCCGUCCUAGCUUUCACUCAGAUGGCUUAUGGAGCCGGUUUCCUAGCUUUCUUGGGAGGGAUCAGACAACAGAGGAUUGAGCAUCA` gave a bound/input enrichment of 0.264 ratio.
`GGGAGUUCUACAGUCCGACGAUCGCAAAGGAUGAUGAGGCGGCAGCUGUUGCACUUUCCUCUCUCGUUCAUGCUUUGGAUGAGUUAAACAUGGUGGCCAUCGUCCGAUAUGCUUAUGACAAAAGAUCUAAUCCUCAAGUUGGUCAACAGAGGAUUGAGCAUCA` has a bound/input enrichment of 0.115 ratio.
For `GGGAGUUCUACAGUCCGACGAUCACCAUUUUCGCGGUUCAGGCUUUGUGUGUAGUUCACUUACGGUAUUAAAUUAUUAUUCUGCUUAGCUUAAAGUAAGGAUAAUUGCAUUUAAAGAGGUUACUGAAUGUUGUUAUUGUUCUUCAACAGAGGAUUGAGCAUCA`, the bound/input enrichment was 0.478 ratio.

Sample 2 — method: RNA Bind-n-Seq; form: RNA; medium: in vitro; tested at: 1 µM; setting: whole 134-nt RNA, ends assumed; added: 150 mM KCl; baseline: input library; reading: higher = stronger binding
Target: Ras GTPase-activating protein-binding protein 1, RRM domain (G3BP1, Homo sapiens, UniProt Q13283)
Chain of UniProt Q13283 (whole entry, looked up): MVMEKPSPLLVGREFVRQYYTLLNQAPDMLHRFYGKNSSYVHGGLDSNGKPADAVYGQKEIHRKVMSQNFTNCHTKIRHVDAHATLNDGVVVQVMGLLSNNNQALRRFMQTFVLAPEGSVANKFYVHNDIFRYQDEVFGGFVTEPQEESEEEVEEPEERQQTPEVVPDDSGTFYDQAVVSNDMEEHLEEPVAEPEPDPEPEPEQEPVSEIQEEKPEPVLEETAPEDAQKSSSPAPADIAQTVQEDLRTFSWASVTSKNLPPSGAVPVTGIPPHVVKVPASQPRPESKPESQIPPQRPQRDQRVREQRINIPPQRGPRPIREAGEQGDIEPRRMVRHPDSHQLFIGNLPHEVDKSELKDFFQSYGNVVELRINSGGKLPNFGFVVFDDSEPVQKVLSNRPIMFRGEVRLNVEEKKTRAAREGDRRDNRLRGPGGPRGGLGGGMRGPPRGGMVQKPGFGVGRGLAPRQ
Shared flanks, not repeated: GGGAGUUCUACAGUCCGACGAUC … UGGAAUUCUCGGGUGUCAAGG
The log2 enrichment of `GCAGGAAGUAAAAACAAAAGGAAAUGCUUCGGAUAGUGGCAGGGGUGGGGGUUGCUAAGGAAAGGGUGGGAUGGGAGUGGGUAAAGAGUU` is reported as 1.46.
For `UCAAGUCCUGUGCUACACAUCGUAUGUACCGAAUCGGGUGGGAGGGAAAAAGGGAAAGUAUUAUGUUACGCCGUUCGGAUCUGCACUUCC`, the log2 enrichment was 0.581.
With `GCAGGAAGUAAAAACAAAUGGAAAUGCUUCGGAUAGUGGCAGGGGUGGGGGUUCCUAAGGAAAGGGUGGGAUGGGAGUGGGUAAAGAGUU` the log2 enrichment was 0.839.
The log2 enrichment of `AAGUCCUGUGCUACACAUCGUAUGUACCGAAUCGGGAAAAGGGAAAAGGGGAAAAGGAAAGUAUUAUGUUACGCCGUUCGGAUCUGCACU` is reported as -0.232.
`UCUCCCCAGGAGCACAGAAAAUGGUUCUGCCCCCUCCACAGCUCCCACAGACCAGAGCCGGCCACCGUUGGAGGUGAGUCGCCCGCCCCU` has a log2 enrichment of -0.359.

Sample 3 — method: competition protein-binding microarray; form: double-stranded DNA, one strand shown; medium: in vitro; tested at: 2 µM; added: Cbf1 competitor, 0.05 µM; reading: higher = stronger binding; shared flanks, not repeated: … GTCTTGATTCGCTTGACGCTGCTG
Target: Phosphate system positive regulatory protein PHO4, full length, GST-tagged (PHO4, Saccharomyces cerevisiae, UniProt P07270, residues 1-312)
Setting: whole 60-bp probe, lowest competitor level
Construct (chain): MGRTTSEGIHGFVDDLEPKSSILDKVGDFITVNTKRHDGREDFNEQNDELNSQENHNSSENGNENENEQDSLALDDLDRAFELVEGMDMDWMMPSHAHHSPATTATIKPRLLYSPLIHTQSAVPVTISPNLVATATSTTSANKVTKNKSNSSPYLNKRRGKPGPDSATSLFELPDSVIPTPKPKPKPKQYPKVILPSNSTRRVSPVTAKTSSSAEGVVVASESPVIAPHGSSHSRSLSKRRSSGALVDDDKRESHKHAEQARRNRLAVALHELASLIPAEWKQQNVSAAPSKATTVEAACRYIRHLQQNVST
`TCTGATCTTGTGTTCCACGTGCCTGTGGTGGCTTTA` has a fluorescence intensity of 18500 a.u.
With `GTACGGGTGGACGACCACGTGCCGACTATACGCTAT` the fluorescence intensity was 16000 a.u.
With `CTAACGAAGGTTTGCCGGGTGGGTGACAAGCCAAGT` the fluorescence intensity was 3800 a.u.
The fluorescence intensity of `AAATTACTAAGTTCTCACGTGTTTTACCCCGTATGA` is reported as 12600 a.u.
The fluorescence intensity of `GTCTTGTCTCATTGGTTTGTGGGTGTCCCCACTTCA` is reported as 4640 a.u.
`CGGGGTTAAGTTTGATAGGTGGGTGGCTTGCAGCAG` gave a fluorescence intensity of 4340 a.u.

Other studies, line by line
For `PhoQ, residues 284 288 289 292 302 303 SSCCRF`, the fold induction was 19.4 (PhoP, residues 12 14 15 18 19 GQALL (Escherichia coli, UniProt P23836); Sort-seq, refers to: YFP reporter; E. coli; PhoQ-PhoP variant library, added: 10 µM Mg2+; baseline: high Mg2+ state, higher = stronger signaling).

For quick reference, copied from above (sample 3):
With `CTAACGAAGGTTTGCCGGGTGGGTGACAAGCCAAGT` the fluorescence intensity was 3800 a.u.
The fluorescence intensity of `GTCTTGTCTCATTGGTTTGTGGGTGTCCCCACTTCA` is reported as 4640 a.u.
